Experimental data from different studies.
Lines come from different studies, so protocols differ. Values joined by “and” are separate records of one study, mostly repeats; a detail may differ. ± gives the spread as reported.
lasR: Transcriptional activator protein LasR (lasR, Pseudomonas aeruginosa, UniProt P25084)
KLRK1 with ULBP6: NKG2-D type II integral membrane protein, with ULBP6 (KLRK1, Homo sapiens, UniProt P26718)
APP amyloid-beta 1-40 oligomers: Amyloid-beta precursor protein, amyloid-beta 1-40 oligomers (APP, Homo sapiens, UniProt P05067)
lecA: PA-I galactophilic lectin (lecA, Pseudomonas aeruginosa, UniProt Q05097)

For `Cc1cc([C@H](NC(=O)c2cnccc2-c2ccc(C(F)(F)F)cc2)C(=O)N(C)C)cc(C(F)(F)F)c1`, the maximum inhibition was 102 ± 30.6% (NKG2-D type II integral membrane protein, with MICA (KLRK1, Homo sapiens, UniProt P26718); ligand binding, inhibitor, TR-FRET; HEK293 expressing NKG2D and DAP10; added: MICA-Alexa647; reference: positive control).
`N=C(N)NCCC[C@H](NC(=O)[C@H](CCCNC(=N)N)NC(=O)[C@H](CCCNC(=N)N)NC(=O)[C@@H]1CCCN1C(=O)CNCCCN(CC[C@H](N)C(=O)O)C[C@H]1O[C@@H](n2cnc3c(N)ncnc32)[C@H](O)[C@@H]1O)C(=O)N[C@@H](CO)C(=O)O` — result for dimethylation: “inhibited” (N-terminal Xaa-Pro-Lys N-methyltransferase 1 (Homo sapiens, UniProt Q9BV86); enzyme activity, inhibitor, MALDI-MS; 5 µM, 20 min, added: RCC1-10 peptide).
With `CC(=O)NC(Cc1ccc(Br)c(Cl)c1)C(=O)N[C@@H](C)C(=O)N1CCC[C@H]1C(=O)N1CCC[C@H]1C(=O)N[C@@H](CCC(=O)O)C(=O)N[C@@H](Cc1c[nH]cn1)C(=O)N[C@@H](CO)C(=O)N[C@H](C(=O)N[C@@H](C)C(N)=O)[C@@H](C)OP(=O)(O)O` (stereo partly shown) the inhibition was 6.83 ± 0.25% (DYRK1B (Homo sapiens, UniProt Q9Y463); 10 µM).
`C[n+]1ccc(C(=O)NC2CCC3(O)C4Cc5ccc(O)c6c5C3(CC[N+]4(C)CC3CC3)C2O6)cc1` (stereo not shown) gave an Emax of 40.7 ± 2.04% (Oprm1 (Mus musculus, UniProt P42866); G protein activation, agonist; reference: 3 µM DAMGO).
`CC(C)C[C@@H](N)C(=O)NCC(=O)N[C@H](C)C(=O)N[C@H](CO)C(=O)N[C@H](Cc1c[nH]c2ccccc12)C(=O)N[C@H](Cc1c[nH]cn1)C(=O)N[C@H](CCCNC(=N)N)C(=O)N1CCC[C@@H]1C(=O)N[C@H](CC(=O)O)C(=O)N[C@H](CCCCN)C(=O)N[C@H](CCCCN)C(=O)N[C@H](CCCNC(=N)N)C(=O)NCCCCCC(=O)N[C@@H](CCCCN)C(=O)N[C@@H](CCCNC(=N)N)C(=O)N[C@@H](CCCCN)C(=O)N[C@H](C(=O)N[C@@H](CC(N)=O)C(=O)N[C@@H](CC(N)=O)C(=O)N[C@@H](CC(N)=O)C(=O)N1CCC[C@H]1C(=O)N[C@@H](CCCNC(=N)N)C(=O)N[C@H](C(=O)N[C@@H](CS)C(N)=O)[C@@H](C)O)[C@@H](C)O` — result for “binding affinity change”: “decreased” (CXCR4 (Homo sapiens, UniProt P61073, W94A); 12G5 antibody binding; 200 nM, mutant W94A; reference: wild type).
`CNc1ccc2c(n1)sc1c(N3CCNCC3)nc(NC)nc12` gave a k3/KI of 453 ± 9 M⁻¹ s⁻¹ (Eubacterium eligens beta-glucuronidase; slow-binding inhibitor; added: PNPG).
`O=C(N[C@H]1CCOC1=O)c1ccc(-n2cc(-c3ccccc3)nn2)cc1` gave an activation of 0% (lasR; reporter gene, agonist; Escherichia coli, DH5α pJN105L/pSC11; 100 µM; reference: OdDHL at same concentration).
For `CC[C@H](C)[C@@H]1NC(=O)[C@H](CC(C)C)NC(=O)[C@H]([C@@H](C)CC)NC(=O)[C@H](CC(C)C)NC(=O)[C@H](CCCNC(=N)N)NC(=O)[C@H](CCCNC(=N)N)NC(=O)CNC(=O)[C@H](CO)NC(=O)[C@H](CC(C)C)NC(=O)[C@H]([C@@H](C)CC)NC(=O)[C@H]([C@@H](C)CC)NC(=O)[C@H]([C@@H](C)CC)NC(=O)[C@H](CC(C)C)NC(=O)[C@H](CCC(N)=O)NC(=O)[C@H](CCCCN)NC(=O)[C@@H](Cc2ccc(O)cc2)NC(=O)CSC[C@@H](C(=O)NCC(N)=O)NC1=O`, “Km of SAM” read “no effect” (NNMT (Homo sapiens, UniProt P40261); inhibitor; increasing inhibitor concentration, added: nicotinamide 200 µM).
`CCCCC/C=C\C/C=C\C/C=C\C/C=C\CCCC(=O)NC(CO)C(=O)O` (stereo in doubt) — result for “maximal conductance increase”: 20 ± 4% (Voltage-gated potassium channel, KQT; KCNQ2(Kv7.2)/KCNQ3(Kv7.3) (KCNQ3/KCNQ2, Homo sapiens, UniProt O43525+O43526); two-electrode voltage clamp; Xenopus oocytes; 1 µM).
For `COP(=O)(O)O`, “relative catalytic efficiency” read 2000 (Alkaline phosphatase PafA (pafA, Elizabethkingia meningoseptica, UniProt Q9KJX5, R164A); Chryseobacterium meningosepticum; pH 8.0; reference: wild type over mutant kcat/KM).
`CN(C)C(=O)[C@@H](NC(=O)c1ccccc1-c1ccc(C(F)(F)F)cc1)c1cccc(C(F)(F)F)c1` has an Emax of 98 ± 39.9% (KLRK1 with ULBP6).
For `C=C(CC)C(=O)c1ccc(OCC(=O)NCCNC(=O)COc2ccc(C(=O)C(=C)CC)c(Cl)c2Cl)c(Cl)c1Cl`, the selectivity ratio was about 15 fold (Glutathione S-transferase Mu 2 (Homo sapiens, UniProt P28161); enzyme activity, inhibitor; no preincubation; reference: GSTP IC50 over GSTM IC50).
For `C/C(=N\OCCCN1CCCCC1)c1ccc(C(F)(F)F)cc1`, the selectivity ratio was 196 fold (Tmem97 (Rattus norvegicus, UniProt Q5U3Y7); binding, [3H]-DTG radioligand binding; rat brain homogenate; reference: Ki over sigma-1 Ki).
For `CC[C@H](C)[C@@H]1NC(=O)[C@H](Cc2ccc(O)cc2)NC(=O)[C@@H](N)CSSC[C@@H](C(=O)N2CCC[C@H]2C(=O)N2CCC[C@H]2C(=O)NCC(N)=O)NC(=O)[C@H](CC(N)=O)NC(=O)[C@H](CCC(N)=O)NC1=O`, the potency ratio was about 4 (Oxytocin receptor (OXTR, Homo sapiens, UniProt P30559); membrane hyperpolarization, agonist; CHO; reference: compound over vasopressin).
For `Nc1ccc(C(O)(C(F)(F)F)C(F)(F)F)cc1`, activity read “inactive” (APP amyloid-beta 1-40 oligomers; 200 µM).
The potentiation of `C=C(C)[C@@H]1CCC(C)=C[C@H]1c1ccc(CCCCC)cc1O` is reported as 989 ± 171% (Glra3 (Rattus norvegicus, UniProt P24524); glycine current, positive allosteric modulator, whole-cell patch clamp; HEK293; 1 µM).
`OC(CCNCCc1c[nH]c2ccccc12)C(F)(F)F` (stereo not shown) — result for “STD NMR signal”: 2.77% (APP amyloid-beta 1-40 oligomers; binding, STD NMR; highest STD).
`CCCCCc1cn(-c2cccc(C(=O)N[C@H]3CCOC3=O)c2)nn1` gave an activation of 0% (lasR; reporter gene, agonist; Escherichia coli DH5α pJN105L/pSC11; 10 µM; reference: OdDHL 100 µM).
`C[C@@]1(O)CC[C@H]2[C@H](CC[C@@H]3[C@@H]2CC[C@]2(C)[C@@H](C(=O)Cn4cccn4)CC[C@@H]32)C1` gave a PKA activation of 96.9 ± 3.98% (Membrane progestin receptor delta (Paqr6, Mus musculus, UniProt Q6TCG5); pPKA/PKA immunoblot; MDA-MB-231 expressing Paqr6-GFP; 3 nM, 20 min; reference: control).
With `c1ccc(CCCC2CCC(CCCc3ccccc3)N2)cc1` (stereo not shown) the maximal inhibition was 100% (Slc18a2 (Rattus norvegicus, UniProt Q01827); binding; rat whole brain vesicles; added: [3H]dihydrotetrabenazine).
For `O=[N+]([O-])c1ccc(OP(=O)(O)O)cc1`, the kcat was 0.39 s^–1 (Alkaline phosphatase PafA (pafA, Elizabethkingia meningoseptica, UniProt Q9KJX5, N100A); substrate; pH 8.0).
For `CCN(Cc1ccccc1)C(=O)CCc1nc(CN2CCN(C(=O)Cc3ccc(OC)c(OC)c3)CC2)no1`, the current density was -14.1 ± 4.21 pA/pF (Scn10a (Rattus norvegicus, UniProt Q62968); sodium current, inhibitor, whole-cell patch clamp; rat DRG neurons; 300 nM, holding at -10 mV).
The maximum inhibition of `CN(C)C(=O)[C@@H](NC(=O)c1cnccc1-c1ccc(C(F)(F)F)cc1)c1cc(C(F)(F)F)cc(C(F)(F)F)c1` is reported as 103% (KLRK1 with ULBP6; ligand binding, inhibitor, TR-FRET; HEK293 expressing NKG2D and DAP10; added: ULBP6-AF647; reference: positive control).
`Nc1nc(Cl)nc2c1ncn2Cc1cc(OCC(F)F)cc(OC(F)F)c1` gave a selectivity ratio of 441 fold (PDE7A (Homo sapiens, UniProt Q13946); reference: PDE8A1 IC50 over PDE7A1 IC50).
With `C[C@]1(COC(=O)c2ccc(O)c(O)c2)[C@H](C(=O)O)N2C(=O)/C(=C/c3ccccn3)[C@H]2S1(=O)=O` the kinact was 0.032 s⁻¹ (Beta-lactamase (ampC, Pseudomonas aeruginosa, UniProt P24735); enzyme activity, inhibitor, absorbance).
`CCOC(=O)/C=C/[C@H](C[C@@H]1CCNC1=O)NC(=O)[C@H](Cc1ccccc1)NC(=O)[C@H](COC(C)(C)C)NC(=O)OCc1ccccc1` — result for “FLuc reporter expression”: “no effect” (Genome polyprotein, 3C protease (Human hepatitis A virus genotype IB, UniProt P08617); protease activity, cell-based reporter; hepatitis A virus).
`CC[C@H](C)[C@H](NC(=O)[C@H](CCCCN)NC(=O)[C@H](Cc1ccccc1)NC(=O)[C@H](CCCCNC(=O)[C@H](CC(C)C)NC(=O)[C@@H]1CCCN1C(=O)[C@H](CCCCN)NC(=O)c1ccc(O[C@@H]2O[C@H](CO)[C@H](O)[C@H](O)[C@H]2O)cc1)NC(=O)[C@H](CC(C)C)NC(=O)[C@@H]1CCCN1C(=O)[C@H](CCCCN)NC(=O)c1ccc(O[C@@H]2O[C@H](CO)[C@H](O)[C@H](O)[C@H]2O)cc1)C(N)=O`: “relative potency per galactoside” 18 and 20 (lecA; binding, isothermal titration calorimetry; divided by galactoside copies; reference: monovalent galactoside KD over ligand KD).
`CC[C@H](C)[C@H](NC(=O)[C@H](Cc1c[nH]cn1)NC(=O)[C@H](CCCCNC(=O)[C@@H](NC(=O)[C@H](CCCCN)NC(=O)[C@H](Cc1ccccc1)NC(=O)[C@H](CCCCNC(=O)[C@H](CC(C)C)NC(=O)[C@@H]1CCCN1C(=O)[C@H](CCCCN)NC(=O)c1ccc(O[C@@H]2O[C@H](CO)[C@H](O)[C@H](O)[C@H]2O)cc1)NC(=O)[C@H](CC(C)C)NC(=O)[C@@H]1CCCN1C(=O)[C@H](CCCCN)NC(=O)c1ccc(O[C@@H]2O[C@H](CO)[C@H](O)[C@H](O)[C@H]2O)cc1)[C@@H](C)CC)NC(=O)[C@@H](NC(=O)[C@H](CCCCN)NC(=O)[C@H](Cc1ccccc1)NC(=O)[C@H](CCCCNC(=O)[C@H](CC(C)C)NC(=O)[C@@H]1CCCN1C(=O)[C@H](CCCCN)NC(=O)c1ccc(O[C@@H]2O[C@H](CO)[C@H](O)[C@H](O)[C@H]2O)cc1)NC(=O)[C@H](CC(C)C)NC(=O)[C@@H]1CCCN1C(=O)[C@H](CCCCN)NC(=O)c1ccc(O[C@@H]2O[C@H](CO)[C@H](O)[C@H](O)[C@H]2O)cc1)[C@@H](C)CC)C(N)=O` — result for “binding enthalpy (ΔH)”: -12 ± 1.4 kcal/mol (lecA; ITC; concentration not given, pH 7.5, 25 °C).
With `CC[C@H](C)[C@H](NC(C)=O)C(=O)N[C@H]1CSSC[C@@H](C(=O)N[C@H](C(N)=O)[C@@H](C)O)NC(=O)[C@H](CCCNC(=N)N)NC(=O)[C@H](Cc2c[nH]cn2)NC(=O)[C@H](C)NC(=O)CNC(=O)[C@H](Cc2c[nH]c3ccccc23)NC(=O)[C@H](CC(=O)O)NC(=O)[C@H](CCC(N)=O)NC(=O)[C@H](Cc2cc3cccc4ccc5cccc2c5c43)NC(=O)[C@H](C(C)C)NC1=O` the kon was 760000 ± 130000 M⁻¹ s⁻¹ (Complement C3, C3b fragment (Homo sapiens, UniProt P01024); pH 7.4).
With `Cn1ccc(-c2ccc(Cn3cc(C(=O)N[C@H]4CCCC[C@@H]4O)c4c(F)cc(F)cc43)cn2)n1` the maximum response was 77 ± 1% (Chrm1 (Mus musculus, UniProt P12657); calcium mobilization, positive allosteric modulator; CHO cells; added: EC20 acetylcholine; reference: ACh maximum).
`COC(=O)C1C(OC(c2ccc(Cl)cc2)c2ccc(Cl)cc2)CC2CCC1N2C` (single isomer, unassigned): Ki “inactive” (Adra1a (Rattus norvegicus, UniProt P43140); binding, radioligand displacement; rat submaxillary gland; inactive if below 75% at 10000 nM, added: [3H]prazosin).

Some of these lines once more:
For `C/C(=N\OCCCN1CCCCC1)c1ccc(C(F)(F)F)cc1`, the selectivity ratio was 196 fold (Tmem97 (Rattus norvegicus, UniProt Q5U3Y7); binding, [3H]-DTG radioligand binding; rat brain homogenate; reference: Ki over sigma-1 Ki).
For `CC[C@H](C)[C@@H]1NC(=O)[C@H](Cc2ccc(O)cc2)NC(=O)[C@@H](N)CSSC[C@@H](C(=O)N2CCC[C@H]2C(=O)N2CCC[C@H]2C(=O)NCC(N)=O)NC(=O)[C@H](CC(N)=O)NC(=O)[C@H](CCC(N)=O)NC1=O`, the potency ratio was about 4 (Oxytocin receptor (OXTR, Homo sapiens, UniProt P30559); membrane hyperpolarization, agonist; CHO; reference: compound over vasopressin).
For `Nc1ccc(C(O)(C(F)(F)F)C(F)(F)F)cc1`, activity read “inactive” (APP amyloid-beta 1-40 oligomers; 200 µM).
The potentiation of `C=C(C)[C@@H]1CCC(C)=C[C@H]1c1ccc(CCCCC)cc1O` is reported as 989 ± 171% (Glra3 (Rattus norvegicus, UniProt P24524); glycine current, positive allosteric modulator, whole-cell patch clamp; HEK293; 1 µM).
`OC(CCNCCc1c[nH]c2ccccc12)C(F)(F)F` (stereo not shown) — result for “STD NMR signal”: 2.77% (APP amyloid-beta 1-40 oligomers; binding, STD NMR; highest STD).
